Experimental data collected from several papers.
A part holds a random share of what one study measured.
Sequence of UniProt P78362 (whole entry, looked up): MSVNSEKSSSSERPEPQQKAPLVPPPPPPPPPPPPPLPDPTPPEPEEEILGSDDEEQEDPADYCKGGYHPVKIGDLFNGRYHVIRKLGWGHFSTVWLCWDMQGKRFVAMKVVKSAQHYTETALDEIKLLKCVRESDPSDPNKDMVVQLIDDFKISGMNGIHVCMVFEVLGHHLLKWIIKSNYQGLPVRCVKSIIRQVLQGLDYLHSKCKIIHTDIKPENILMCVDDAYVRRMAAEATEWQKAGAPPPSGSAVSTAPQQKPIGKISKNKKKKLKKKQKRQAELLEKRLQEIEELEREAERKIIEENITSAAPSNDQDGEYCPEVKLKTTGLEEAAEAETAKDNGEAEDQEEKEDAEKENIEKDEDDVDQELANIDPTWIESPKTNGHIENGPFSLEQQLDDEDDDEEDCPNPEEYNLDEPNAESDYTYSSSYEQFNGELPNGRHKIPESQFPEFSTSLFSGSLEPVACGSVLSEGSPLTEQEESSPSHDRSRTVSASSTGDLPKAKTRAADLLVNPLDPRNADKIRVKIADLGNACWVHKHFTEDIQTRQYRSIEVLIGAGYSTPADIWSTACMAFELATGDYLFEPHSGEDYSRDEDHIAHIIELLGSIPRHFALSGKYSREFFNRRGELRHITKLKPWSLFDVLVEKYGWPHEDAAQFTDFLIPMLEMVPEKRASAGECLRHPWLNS
Sequence of UniProt P15056 (whole entry, looked up): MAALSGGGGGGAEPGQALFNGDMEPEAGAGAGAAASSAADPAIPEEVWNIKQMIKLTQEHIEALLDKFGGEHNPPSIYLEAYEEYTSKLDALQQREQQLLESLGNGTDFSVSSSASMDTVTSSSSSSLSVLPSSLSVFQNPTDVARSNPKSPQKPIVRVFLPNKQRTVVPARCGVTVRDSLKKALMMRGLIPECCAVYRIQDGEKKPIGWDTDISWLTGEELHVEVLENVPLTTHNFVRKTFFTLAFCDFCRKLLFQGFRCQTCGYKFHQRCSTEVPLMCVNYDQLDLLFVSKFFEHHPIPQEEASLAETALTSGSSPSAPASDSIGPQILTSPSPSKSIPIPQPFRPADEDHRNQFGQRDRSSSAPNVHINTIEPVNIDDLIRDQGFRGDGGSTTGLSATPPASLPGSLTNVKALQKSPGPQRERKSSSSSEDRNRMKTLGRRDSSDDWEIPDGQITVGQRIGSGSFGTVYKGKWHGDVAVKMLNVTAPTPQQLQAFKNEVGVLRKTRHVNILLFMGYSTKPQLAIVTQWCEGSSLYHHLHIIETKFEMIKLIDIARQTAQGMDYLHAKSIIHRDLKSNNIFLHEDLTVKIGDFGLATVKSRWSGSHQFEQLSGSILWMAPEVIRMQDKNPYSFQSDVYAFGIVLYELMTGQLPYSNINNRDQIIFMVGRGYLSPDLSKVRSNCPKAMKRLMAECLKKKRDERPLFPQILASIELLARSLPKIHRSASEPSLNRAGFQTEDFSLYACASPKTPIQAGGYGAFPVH
Sequence of UniProt Q13188 (whole entry, looked up): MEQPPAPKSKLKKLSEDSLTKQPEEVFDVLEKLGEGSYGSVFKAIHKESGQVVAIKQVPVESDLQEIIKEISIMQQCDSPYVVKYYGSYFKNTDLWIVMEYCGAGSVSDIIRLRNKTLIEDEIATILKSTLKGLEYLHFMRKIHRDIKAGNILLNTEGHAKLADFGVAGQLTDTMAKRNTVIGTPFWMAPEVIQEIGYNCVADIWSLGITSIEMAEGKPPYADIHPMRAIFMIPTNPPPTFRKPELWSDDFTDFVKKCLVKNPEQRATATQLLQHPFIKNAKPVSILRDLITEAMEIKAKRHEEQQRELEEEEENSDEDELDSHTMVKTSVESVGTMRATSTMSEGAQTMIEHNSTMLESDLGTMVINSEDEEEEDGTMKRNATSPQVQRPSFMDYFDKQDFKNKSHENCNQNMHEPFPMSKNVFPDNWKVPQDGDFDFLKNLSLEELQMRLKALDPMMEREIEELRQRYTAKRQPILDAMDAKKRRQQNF
Sequence of UniProt Q9NRP7 (whole entry, looked up): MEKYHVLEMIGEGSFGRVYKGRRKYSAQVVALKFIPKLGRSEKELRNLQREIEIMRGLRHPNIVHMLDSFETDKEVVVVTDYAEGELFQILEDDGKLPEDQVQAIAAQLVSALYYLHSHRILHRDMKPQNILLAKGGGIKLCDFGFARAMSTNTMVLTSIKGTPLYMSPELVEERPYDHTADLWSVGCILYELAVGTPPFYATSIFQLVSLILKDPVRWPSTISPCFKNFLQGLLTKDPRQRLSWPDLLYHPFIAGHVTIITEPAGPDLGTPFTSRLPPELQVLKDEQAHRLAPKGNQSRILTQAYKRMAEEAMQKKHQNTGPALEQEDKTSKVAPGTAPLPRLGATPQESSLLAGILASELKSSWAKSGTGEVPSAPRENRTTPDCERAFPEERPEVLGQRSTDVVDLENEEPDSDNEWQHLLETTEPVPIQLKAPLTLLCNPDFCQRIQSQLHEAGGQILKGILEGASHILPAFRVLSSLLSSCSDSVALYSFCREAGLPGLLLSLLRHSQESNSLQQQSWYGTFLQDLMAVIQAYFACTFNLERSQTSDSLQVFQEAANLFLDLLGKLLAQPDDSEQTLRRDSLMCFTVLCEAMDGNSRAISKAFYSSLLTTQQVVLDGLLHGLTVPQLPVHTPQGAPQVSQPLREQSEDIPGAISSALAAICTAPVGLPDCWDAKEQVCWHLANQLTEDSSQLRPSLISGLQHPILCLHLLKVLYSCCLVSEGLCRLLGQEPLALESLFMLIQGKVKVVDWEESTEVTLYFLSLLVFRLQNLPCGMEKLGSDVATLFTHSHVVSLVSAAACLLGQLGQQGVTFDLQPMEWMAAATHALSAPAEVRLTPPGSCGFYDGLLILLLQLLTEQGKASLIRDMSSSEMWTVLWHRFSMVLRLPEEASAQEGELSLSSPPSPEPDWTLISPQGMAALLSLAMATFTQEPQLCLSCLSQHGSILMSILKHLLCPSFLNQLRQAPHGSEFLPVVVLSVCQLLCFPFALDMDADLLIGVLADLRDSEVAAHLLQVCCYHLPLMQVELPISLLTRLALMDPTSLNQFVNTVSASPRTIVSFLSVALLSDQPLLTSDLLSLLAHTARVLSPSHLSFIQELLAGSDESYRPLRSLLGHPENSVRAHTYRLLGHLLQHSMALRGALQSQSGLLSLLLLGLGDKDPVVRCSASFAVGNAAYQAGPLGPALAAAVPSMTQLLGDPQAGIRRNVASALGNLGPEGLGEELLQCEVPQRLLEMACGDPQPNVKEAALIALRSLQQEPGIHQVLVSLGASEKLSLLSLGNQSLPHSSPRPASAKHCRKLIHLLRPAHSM
Sequence of UniProt O00141 (whole entry, looked up): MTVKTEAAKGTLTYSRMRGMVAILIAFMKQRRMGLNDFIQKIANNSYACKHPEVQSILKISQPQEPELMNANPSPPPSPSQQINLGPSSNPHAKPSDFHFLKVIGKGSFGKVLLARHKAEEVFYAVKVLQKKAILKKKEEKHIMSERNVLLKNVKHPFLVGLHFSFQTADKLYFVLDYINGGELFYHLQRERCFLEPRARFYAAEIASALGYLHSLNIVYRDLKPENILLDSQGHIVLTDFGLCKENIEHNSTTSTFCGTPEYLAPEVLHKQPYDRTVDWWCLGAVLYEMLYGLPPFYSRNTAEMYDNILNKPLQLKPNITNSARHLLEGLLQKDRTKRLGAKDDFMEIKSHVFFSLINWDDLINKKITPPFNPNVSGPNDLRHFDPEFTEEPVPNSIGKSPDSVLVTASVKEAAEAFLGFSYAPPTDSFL

Set 1 — effect on: enzyme activity; action: inhibitor; tested at: 0.5 µM; baseline: control
Target: Beta-adrenergic receptor kinase 1 (GRK2, Homo sapiens, UniProt P25098)
Sequence of UniProt P25098 (whole entry, looked up): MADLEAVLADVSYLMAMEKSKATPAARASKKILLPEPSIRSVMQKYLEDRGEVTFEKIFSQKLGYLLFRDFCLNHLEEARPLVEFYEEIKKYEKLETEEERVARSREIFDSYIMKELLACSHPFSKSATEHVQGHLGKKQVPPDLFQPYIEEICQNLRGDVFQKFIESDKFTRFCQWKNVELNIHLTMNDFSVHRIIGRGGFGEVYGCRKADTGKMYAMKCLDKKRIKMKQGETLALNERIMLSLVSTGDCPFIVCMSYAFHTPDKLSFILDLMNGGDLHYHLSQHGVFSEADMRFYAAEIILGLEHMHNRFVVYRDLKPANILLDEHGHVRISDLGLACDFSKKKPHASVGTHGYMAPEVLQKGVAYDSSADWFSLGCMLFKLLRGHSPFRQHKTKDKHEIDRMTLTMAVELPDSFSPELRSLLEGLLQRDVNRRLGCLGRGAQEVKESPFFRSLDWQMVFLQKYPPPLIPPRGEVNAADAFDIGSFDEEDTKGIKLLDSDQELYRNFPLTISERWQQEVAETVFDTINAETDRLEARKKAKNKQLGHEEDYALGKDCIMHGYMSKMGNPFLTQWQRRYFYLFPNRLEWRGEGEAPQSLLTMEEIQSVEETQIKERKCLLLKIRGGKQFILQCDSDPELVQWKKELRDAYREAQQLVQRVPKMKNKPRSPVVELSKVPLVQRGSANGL
Compound | remaining activity [%]
CSc1nc(-c2ccnc(N[C@@H](C)c3ccccc3)c2)c(-c2ccc(F)cc2)[nH]1 (racemic) | 102
O=S(=O)(NCCNC/C=C/c1ccc(Br)cc1)c1cccc2cnccc12 | 91.3
O=C1NC(=O)C(c2c[nH]c3ccccc23)=C1c1c[nH]c2ccccc12 | 98.4
Fc1ccc(-c2nc3n(c2-c2ccncc2)CCS3)cc1 | 102
CC(=O)c1ccc(N2CCOCC2)cc1O | 99
Cc1cncc2cccc(S(=O)(=O)N3CCCN(C(=O)CN)C[C@@H]3C)c12 | 101
Nc1nc(Nc2ccc(S(N)(=O)=O)cc2)nn1C(=O)c1c(F)cccc1F | 97.3
CC#CC(=O)Nc1cc2c(Nc3ccc(F)c(Cl)c3)ncnc2cn1 | 98.3
CCc1[nH]c(-c2ccc(OC)cc2)nc1-c1ccncc1 | 101
Nc1ncnc2c1cnn2-c1ccccc1 | 99.4
Oc1ccc(Nc2nc(-c3ccc(Cl)cc3)cs2)cc1 | 100
Cc1cc(Nc2nc(-c3ccccc3)nc3ccccc23)n[nH]1 | 106
Nc1nccc(-c2c(-c3ccc(F)cc3)ncn2C2CCNCC2)n1 | 99.7
CC[n+]1c(/C=C/N(C)c2ccccc2)n(-c2ccccc2)c2ccc(-c3nc4ccccc4s3)cc21 | 87.5
N#CC(=C(N)Sc1ccc(N)cc1)c1ccccc1C(F)(F)F | 114
CCCC(=O)Oc1ccc2[nH]c(C(=O)c3cc4ccccc4[nH]3)cc2c1 | 102
COc1cc(Nc2c(C#N)cnc3cc(OCCCN4CCN(C)CC4)c(OC)cc23)c(Cl)cc1Cl | 97.3
CC(C)(C)n1nc(Cc2cccc3ccccc23)c2c(N)ncnc21 | 101
NC(=O)c1ccc(N(C(N)=O)c2c(F)cccc2F)nc1-c1ccc(F)cc1F | 99
O=C1Cc2c([nH]c3ccc([N+](=O)[O-])cc23)-c2ccccc2N1 | 91.8

Set 2 — effect on: enzyme activity; action: inhibitor; tested at: 10 µM
Target: Calcium/calmodulin-dependent protein kinase type II subunit alpha (CAMK2A, Homo sapiens, UniProt Q9UQM7)
Sequence of UniProt Q9UQM7 (whole entry, looked up): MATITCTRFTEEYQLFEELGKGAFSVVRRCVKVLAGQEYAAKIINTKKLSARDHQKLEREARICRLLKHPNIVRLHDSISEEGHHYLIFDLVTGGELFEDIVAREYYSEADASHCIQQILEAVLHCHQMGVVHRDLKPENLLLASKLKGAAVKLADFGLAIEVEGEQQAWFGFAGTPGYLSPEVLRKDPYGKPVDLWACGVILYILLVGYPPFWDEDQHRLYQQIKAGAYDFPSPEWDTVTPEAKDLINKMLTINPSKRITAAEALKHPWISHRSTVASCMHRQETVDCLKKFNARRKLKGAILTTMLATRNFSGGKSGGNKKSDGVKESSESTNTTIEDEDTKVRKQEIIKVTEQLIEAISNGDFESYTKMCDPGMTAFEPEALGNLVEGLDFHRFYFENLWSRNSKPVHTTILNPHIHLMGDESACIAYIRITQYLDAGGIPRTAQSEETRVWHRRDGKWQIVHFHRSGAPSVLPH
Compound | inhibition [%]
OC[C@H]1O[C@@H](c2ccc(Cl)c(Cc3ccc(O[C@H]4CCOC4)cc3)c2)[C@H](O)[C@@H](O)[C@@H]1O | 4
CC(C)[C@@H]1CC[C@@H](C)CC1=O | -31
Cc1cc(=O)c2c(O)c3c(O)cc(O)c4c5c(O)cc(O)c6c(O)c7c(=O)cc(C)cc7c(c65)c(c2c1)c34 | 18
COc1nc(C)nc(Cl)c1NC1=NCCN1 | -5
N[C@@H](CSCSC[C@H](N)C(=O)O)C(=O)O | 23

Set 3 — effect on: enzyme activity; tested at: 5 µM
SMILES: O=C(Nc1cnn(-c2csc(C(=O)NC3COC3)c2)c1)Nc1c(F)cccc1Cl
target | assay | how to read | remaining activity [%]
STK3 (Homo sapiens, UniProt Q13188) | – | baseline: untreated control | 93
RPS6KA3 (Homo sapiens, UniProt P51812) | – | baseline: untreated control | 78.5
JAK3 (Homo sapiens, UniProt P52333) | – | baseline: untreated control | 96.2
GRK7 (Homo sapiens, UniProt Q8WTQ7) | – | baseline: untreated control | 92.6
MAPK14 (Homo sapiens, UniProt Q16539) | – | baseline: untreated control | 104
SGK1 (Homo sapiens, UniProt O00141) | – | baseline: untreated control | 91.7
BRAF (Homo sapiens, UniProt P15056) | – | baseline: untreated control | 97.5
RET (Homo sapiens, UniProt P07949) | – | baseline: untreated control | 98.1
Protein kinase C beta type, isoform beta-II (PRKCB, Homo sapiens, UniProt P05771) | – | baseline: untreated control | 98.6
DSTYK (Homo sapiens, UniProt Q6XUX3) | inhibitor | – | 95.5

Set 4 — method: competition with immobilised ligand; tested at: 1 µM
Compound: O=C(O)[C@@H]1[C@@H](Cn2nnc3ccccc3c2=O)CC[C@H]1C(=O)c1ccc(OCCC2CCOCC2)cc1
target | assay | remaining binding
EPHB1 (Homo sapiens, UniProt P54762) | cell-free assay | 100%
PRKCI (Homo sapiens, UniProt P41743) | cell-free assay | 100%
RIOK1 (Homo sapiens, UniProt Q9BRS2) | cell-free assay | 100%
SRPK2 (Homo sapiens, UniProt P78362) | cell-free assay | 100%
COQ8B (Homo sapiens, UniProt Q96D53) | cell-free assay | 64%
CDKL2 (Homo sapiens, UniProt Q92772) | binding | 73%
MET (Homo sapiens, UniProt P08581, M1250T) | cell-free assay | 100%
NEK5 (Homo sapiens, UniProt Q6P3R8) | cell-free assay | 100%
CDC42BPA (Homo sapiens, UniProt Q5VT25) | cell-free assay | 91%
STK36 (Homo sapiens, UniProt Q9NRP7) | cell-free assay | 91%
SRPK1 (Homo sapiens, UniProt Q96SB4) | cell-free assay | 100%
CLK4 (Homo sapiens, UniProt Q9HAZ1) | cell-free assay | 100%

Excerpt of the above (set 3):
target | assay | how to read | remaining activity [%]
STK3 (Homo sapiens, UniProt Q13188) | – | baseline: untreated control | 93
RPS6KA3 (Homo sapiens, UniProt P51812) | – | baseline: untreated control | 78.5
JAK3 (Homo sapiens, UniProt P52333) | – | baseline: untreated control | 96.2
GRK7 (Homo sapiens, UniProt Q8WTQ7) | – | baseline: untreated control | 92.6
